Published values gathered from unrelated publications.
Compare with care: the assays were run in different laboratories. Numbers after ± are the reported error.
SCTR: Secretin receptor (SCTR, Homo sapiens, UniProt P47872)
Chain of UniProt P47872 (whole entry, looked up): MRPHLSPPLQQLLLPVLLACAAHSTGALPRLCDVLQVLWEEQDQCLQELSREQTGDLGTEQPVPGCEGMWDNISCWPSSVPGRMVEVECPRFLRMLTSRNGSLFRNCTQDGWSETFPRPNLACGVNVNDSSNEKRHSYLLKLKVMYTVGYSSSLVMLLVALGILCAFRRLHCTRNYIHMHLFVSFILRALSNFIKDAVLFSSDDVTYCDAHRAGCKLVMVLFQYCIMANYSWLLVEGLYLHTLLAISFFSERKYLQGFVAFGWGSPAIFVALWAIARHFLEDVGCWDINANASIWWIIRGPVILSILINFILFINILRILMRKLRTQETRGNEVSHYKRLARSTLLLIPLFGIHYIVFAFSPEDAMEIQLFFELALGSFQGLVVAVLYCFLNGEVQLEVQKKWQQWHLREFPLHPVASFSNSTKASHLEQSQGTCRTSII
POLB I260M: DNA polymerase beta (POLB, Homo sapiens, UniProt P06746, I260M)
MET: Hepatocyte growth factor receptor (MET, Homo sapiens, UniProt P08581)
Chain of UniProt P08581 (whole entry, looked up): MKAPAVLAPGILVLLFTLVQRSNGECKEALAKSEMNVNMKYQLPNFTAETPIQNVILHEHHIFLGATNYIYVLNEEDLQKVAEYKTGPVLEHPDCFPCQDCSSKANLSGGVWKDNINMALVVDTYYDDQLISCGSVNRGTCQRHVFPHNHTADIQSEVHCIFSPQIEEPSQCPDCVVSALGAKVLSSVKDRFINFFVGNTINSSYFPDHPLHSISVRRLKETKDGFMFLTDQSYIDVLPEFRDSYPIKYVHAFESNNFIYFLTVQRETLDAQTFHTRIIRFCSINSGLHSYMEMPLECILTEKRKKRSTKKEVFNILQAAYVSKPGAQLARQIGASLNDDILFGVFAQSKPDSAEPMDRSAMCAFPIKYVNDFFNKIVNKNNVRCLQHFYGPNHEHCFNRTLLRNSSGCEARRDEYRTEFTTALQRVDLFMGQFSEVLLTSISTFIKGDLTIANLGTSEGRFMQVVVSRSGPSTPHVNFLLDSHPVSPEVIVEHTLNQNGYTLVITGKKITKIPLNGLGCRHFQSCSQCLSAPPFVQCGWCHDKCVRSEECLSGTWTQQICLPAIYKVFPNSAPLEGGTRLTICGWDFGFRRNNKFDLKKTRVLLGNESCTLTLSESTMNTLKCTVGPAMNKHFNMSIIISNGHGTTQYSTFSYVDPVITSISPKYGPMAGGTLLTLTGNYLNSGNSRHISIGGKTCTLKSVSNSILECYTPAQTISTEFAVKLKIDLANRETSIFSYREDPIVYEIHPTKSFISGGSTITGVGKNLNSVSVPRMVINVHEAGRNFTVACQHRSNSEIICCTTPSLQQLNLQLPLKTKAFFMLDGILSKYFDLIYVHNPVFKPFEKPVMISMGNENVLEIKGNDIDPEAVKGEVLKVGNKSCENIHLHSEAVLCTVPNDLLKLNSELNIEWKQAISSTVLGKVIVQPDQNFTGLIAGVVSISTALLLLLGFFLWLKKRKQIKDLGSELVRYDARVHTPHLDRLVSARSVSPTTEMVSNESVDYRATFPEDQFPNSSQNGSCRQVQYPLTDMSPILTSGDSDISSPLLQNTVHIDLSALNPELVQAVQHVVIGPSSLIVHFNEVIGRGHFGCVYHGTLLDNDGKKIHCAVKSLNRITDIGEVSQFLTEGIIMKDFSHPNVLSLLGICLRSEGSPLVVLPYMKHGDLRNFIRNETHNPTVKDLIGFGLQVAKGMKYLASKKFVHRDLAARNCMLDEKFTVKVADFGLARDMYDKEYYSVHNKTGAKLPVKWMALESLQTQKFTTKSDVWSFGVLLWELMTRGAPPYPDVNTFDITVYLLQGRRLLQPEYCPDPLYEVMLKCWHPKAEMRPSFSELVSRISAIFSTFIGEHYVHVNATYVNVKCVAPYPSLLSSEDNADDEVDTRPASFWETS
Chain of UniProt P50052 (whole entry, unmodified, looked up): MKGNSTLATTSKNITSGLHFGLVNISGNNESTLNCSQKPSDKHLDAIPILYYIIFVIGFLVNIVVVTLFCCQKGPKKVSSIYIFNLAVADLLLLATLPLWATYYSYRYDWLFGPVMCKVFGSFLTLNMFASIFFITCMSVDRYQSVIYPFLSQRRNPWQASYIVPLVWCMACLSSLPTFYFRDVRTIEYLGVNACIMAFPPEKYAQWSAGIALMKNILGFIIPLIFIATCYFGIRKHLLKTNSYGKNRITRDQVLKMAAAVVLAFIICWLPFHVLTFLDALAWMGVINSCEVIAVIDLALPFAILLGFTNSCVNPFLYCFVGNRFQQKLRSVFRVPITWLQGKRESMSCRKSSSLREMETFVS

| SMILES | target | test | test system | conditions | endpoint | result |
| --- | --- | --- | --- | --- | --- | --- |
| COc1ccc(-c2cc(C(F)(F)F)nc(SCC(=O)N(C)c3ccccc3)n2)cc1OC | SCTR | increase of tracer binding, TR-FRET | HEK293 membranes | added: Fluo-Sec 6 nM | EC50 | 4200 ± 2800 nM |
| Nc1nc2c(ncn2[C@H]2C[C@H](O)[C@@H](COP(=O)(O)OP(=O)(O)C(Cl)(Cl)P(=O)(O)O)O2)c(=O)[nH]1 | POLB I260M | nucleotide binding, substrate, single turnover kinetics | – | 37 °C, dG misincorporation opposite A | Kd | 277000 ± 70000 nM |
| CCOC(=O)CNc1nc(-c2ccccc2)cc(C(F)(F)F)n1 | SCTR | increase of tracer binding, TR-FRET | HEK293 membranes | added: Fluo-Sec 6 nM | EC50 | 22000 ± 17000 nM |
| CCCc1nc2ccc(N(Cc3ccco3)C(=O)c3ccccc3)cc2c(=O)n1Cc1ccc(-c2ccccc2-c2nnn[nH]2)cc1 | AGTR2 (Homo sapiens, UniProt P50052, I211A) | ligand displacement, radioligand | – | cell membranes | Ki | 7.59 nM |
| N#Cc1cccc(-c2ccc(=O)n(Cc3cccc(-c4ncc(OCC5CCN(CC(=O)NCCOCCNc6ccc7c(c6)C(=O)N(C6CCC(=O)NC6=O)C7=O)CC5)cn4)c3)n2)c1 (stereo not shown) | MET | degrader | – | – | DC50 | 0.69 ± 0.21 nM |
| COc1ccccc1-c1cc(C(F)(F)F)nc(S(=O)(=O)CCCC(=O)Nc2ccn(Cc3ccc(C)cc3)n2)n1 | SCTR | increase of tracer binding, TR-FRET | HEK293 membranes | added: Fluo-Sec 6 nM | EC50 | 6800 ± 10000 nM |
| N#Cc1cccc(-c2ccc(=O)n(Cc3cccc(-c4ncc(OCC5CCN(CC(=O)N6CCN(c7ccc8c(c7)C(=O)N(C7CCC(=O)NC7=O)C8=O)CC6)CC5)cn4)c3)n2)c1 (stereo not shown) | MET | degrader | – | – | DC50 | 0.44 ± 0.11 nM |
| Nc1nc2c(ncn2C2CC(O)C(COP(=O)(O)OP(=O)(O)C(Cl)P(=O)(O)O)O2)c(=O)[nH]1 (mixture of isomers) | POLB I260M | nucleotide binding, substrate, single turnover kinetics | – | 37 °C, dG misincorporation opposite A | Kd | 681000 ± 304000 nM |
| CCc1nc2ccc(N(Cc3ccccc3)C(=O)c3cccs3)cc2c(=O)n1Cc1ccc(-c2ccccc2-c2nn[nH]n2)cc1 | AGTR2 (Homo sapiens, UniProt P50052, M214A) | ligand displacement, radioligand | – | cell membranes | Ki | 8.32 nM |
| N#Cc1cccc(-c2ccc(=O)n(Cc3cccc(-c4ncc(OCC5CCN(CC(=O)NCCOCCOCCOCCNc6ccc7c(c6)C(=O)N(C6CCC(=O)NC6=O)C7=O)CC5)cn4)c3)n2)c1 (stereo not shown) | MET | degrader | – | – | DC50 | 1.7 ± 0.4 nM |
